Published values gathered from unrelated publications.
Organism: Plasmodium falciparum

With `C[OH+][Cu-2]12[O]C(c3cn(-c4ccccc4)nc3-c3ccc(Cl)cc3)=N[N+]1=C(C)c1c(cc(C)oc1=O)[O]2` (centres unmarked) the parasitaemia was 1.9% (3D7; 100 µg/mL, 72 h).
`Cc1cc(N2CC[C@](C#N)(C3(C)CC3)C2=O)cc(C(=O)NCc2cc(F)cc(-c3cnn(C)c3)c2)n1` — result for growth inhibition: “no inhibition” (SYBR Green I; 3D7; up to 2 µM, asexual blood stage).
The parasitaemia suppression of `C[OH+][Cu-2]12[O]C(c3cn(-c4ccccc4)nc3-c3ccc(F)cc3)=N[N+]1=C(C)c1c(cc(C)oc1=O)[O]2` (centres unmarked) is reported as 100% (3D7; 100 µg/mL, 72 h).
With `CN1CCC[C@@H]1C(=O)N[C@@H](Cc1ccc(-c2ccccc2)cc1)B(O)O` the parasitaemia reduction was ~98% (Pf3D7 0087/N9, SCID mouse; oral, 50 mg/kg, daily for 4 days; baseline: untreated).
`C=C1[C@@H]([C@@]2(C)C=CC(=O)C(C)(C)[C@@H]2CC(=O)OC)[C@@H](OC(C)=O)[C@H](OC(C)=O)[C@@]2(C)[C@H](c3ccoc3)C[C@H]3O[C@]132` — result for “antiplasmodial activity class”: “active” (parasite growth; D6 and W2; concentration not given).
`Cc1ccc(CNC(=O)[C@@H](NC(=O)[C@H](CCc2ccccc2)NC(=O)[C@H](CCc2ccccc2)N(C)C)C(C)C)cc1` gave a selectivity ratio of 51 (D10; 72 h; baseline: HFF EC50 over P. falciparum EC50).
`c1ccc(Cn2c(N3CCNCC3)nc3cccnc32)cc1`: antiplasmodial activity “inactive” (pLDH; NF54; concentration not given, 48 h).
For `CC[C@H](C)[C@H](NC(=O)[C@@H](NC(=O)[C@H](Cc1ccc(O)cc1)NC(=O)[C@H](CCCCN)NC(=O)[C@H](CCCCN)NC(=O)[C@H](CC(C)C)NC(=O)[C@H](CC(=O)O)NC(=O)[C@H](Cc1ccc(O)cc1)NC(=O)[C@H](CCC(N)=O)NC(=O)[C@H](CCCCN)NC(=O)[C@@H](NC(=O)[C@H](Cc1ccccc1)NC(=O)[C@H](CCCCN)NC(=O)[C@H](CCCCN)NC(=O)[C@H](Cc1c[nH]c2ccccc12)NC(=O)[C@H](CCCCN)NC(=O)[C@H](CCSC)NC(=O)[C@H](CCCNC(=N)N)NC(=O)[C@H](CCCNC(=N)N)NC(=O)[C@H](CC(N)=O)NC(=O)[C@H](CCC(N)=O)NC(=O)[C@H](Cc1ccccc1)NC(=O)[C@H](Cc1c[nH]c2ccccc12)NC(=O)[C@@H](NC(=O)[C@H](CCCCN)NC(=O)[C@@H](NC(=O)[C@H](CCC(N)=O)NC(=O)[C@@H](N)CCCNC(=N)N)[C@@H](C)CC)[C@@H](C)CC)[C@@H](C)CC)[C@@H](C)CC)C(=O)O`, “time to TUNEL positivity” read 4 h (50 µM).
For `CC[C@H](C)[C@@H]1NC(=O)[C@H](CCCCN)NC(=O)[C@H](CCCCN)NC(=O)[C@H](Cc2ccc(O)cc2)NC(=O)[C@H](CC(C)C)NC(=O)[C@@H]2CCCN2C(=O)[C@H](C)NC(=O)CNC(=O)CNC(=O)[C@H](CO)NC(=O)CNC(=O)CNC(=O)[C@H](CO)NC(=O)[C@H](CCCCN)NC(=O)[C@H](CC(C)C)NC(=O)[C@H](CC(C)C)NC(=O)[C@H](CCCCN)NC(=O)[C@H](CCCCN)NC(=O)[C@H]([C@@H](C)CC)NC(=O)[C@H]([C@@H](C)CC)NC(=O)[C@H](CCCCN)NC(=O)[C@H](CCCCN)NC(=O)[C@H](Cc2ccc(O)cc2)NC(=O)[C@H](CC(C)C)NC(=O)[C@@H]2CCCN2C(=O)[C@H](C)NC(=O)CNC(=O)CNC(=O)[C@H](CO)NC(=O)CNC(=O)CNC(=O)[C@H](CO)NC(=O)[C@H](CCC(=O)O)NC(=O)[C@H](CC(C)C)NC(=O)[C@H](CC(C)C)NC(=O)[C@H](CCCCN)NC(=O)[C@H](CCCCN)NC(=O)[C@H]([C@@H](C)CC)NC1=O`, the selectivity index was ~30 (3D7; 5 mg/mL Albumax II; baseline: RBC HC10 over P. falciparum IC50).
`Cc1ccc(NCC(=O)N2CCCCC2)cc1S(=O)(=O)N1CCOCC1` has an EC50 of > 50000 nM (parasite growth; 3D7; blood stage).
`COC1=CC(c2ccc[nH]2)=NC1=CNC1CC1` has an IC50 of 2400 nM (parasite growth, SYBR Green I fluorescence; D6, chloroquine-sensitive).
